Measurements pooled from the literature.
Lines come from different studies, so protocols differ. Values joined by “and” are separate records of one study, mostly repeats; a detail may differ. pEC50, pIC50: −log10 of the molar value.
Target: C-X-C chemokine receptor type 4 (CXCR4, Homo sapiens, UniProt P61073)

| SMILES | effect on | mode | technique | quantity | result |
| --- | --- | --- | --- | --- | --- |
| CC(=O)[O][Cu+].CN1CCCN2CCN(CCCN(Cc3ccccc3)CC2)CC1 | calcium signal | antagonist | fluorescence | pIC50 | 7.27 and ~7.30 |
| COc1ccccc1-c1nnc2n1N=C(c1ccc([N+](=O)[O-])cc1)CS2 | β-arrestin recruitment | agonist | – | pEC50 | < 4.10 |
| COc1ccccc1N1CCN(c2nc(Nc3ccc(C)c(C)c3)c3nccnc3n2)CC1 | β-arrestin recruitment | – | – | pIC50 | ~5.30 |
| CC(=O)[O][Cu+].c1ccc(CN2CCN3CCN(CC2)CCN(Cc2ccccc2)CC3)cc1 | calcium signal | antagonist | fluorescence | pIC50 | 6.64 |
| N=C(N)NCCC[C@H](NC(=O)[C@@H]1CSSC[C@H](NC(=O)[C@H](Cc2cccc3ccccc23)NC(=O)[C@H](CCCNC(=N)N)NC(=O)[C@@H](N)CCCNC(=N)N)C(=O)N[C@@H](Cc2ccc(O)cc2)C(=O)N[C@@H](CCC(N)=O)C(=O)N[C@@H](CCCCN)C(=O)N2CCC[C@@H]2C(=O)N2CCC[C@H]2C(=O)N[C@@H](Cc2ccc(O)cc2)C(=O)N[C@@H](CCCNC(=N)N)C(=O)N[C@@H](CCCNC(N)=O)C(=O)N1)C(=O)NCC(=O)N1CCC[C@@H]1C(=O)O | – | – | – | pIC50 | 10.70 |
| CCOc1ccccc1-c1nnc2n1N=C(c1ccc(NC(C)=O)cc1)CS2 | β-arrestin recruitment | agonist | – | pEC50 | < 5.00 |
| CC(=O)[O][Zn+].CN1CCN2CCN(CC1)CCN(Cc1ccccc1)CC2 | calcium signal | antagonist | fluorescence | pIC50 | 7.40 and ~7.30 |
| CCS(=O)(=O)c1ncc(N(Cc2ccco2)Cc2ccc(C)o2)c(C(=O)Nc2ccccc2F)n1 | β-arrestin recruitment | – | – | pIC50 | ~5.70 |
| CCOc1ccccc1-c1nnc2n1N=C(c1ccc(N3CCCC3)cc1)CS2 | cAMP | agonist | – | pEC50 | 7.30 |
| N=C(N)NCCC[C@H](NC(=O)[C@@H]1CSSC[C@H](NC(=O)[C@H](Cc2ccc3ccccc3c2)NC(=O)[C@H](CCCNC(=N)N)NC(=O)[C@H](CCCNC(=N)N)NC(=S)Nc2ccc(C[C@H]3CN(CC(=O)O)CCN(CC(=O)O)CCN3CC(=O)O)cc2)C(=O)N[C@@H](Cc2ccc(O)cc2)C(=O)N[C@@H](CCCNC(N)=O)C(=O)N[C@@H](CCCCN)C(=O)N[C@H](CCCCN)C(=O)N2CCC[C@H]2C(=O)N[C@@H](Cc2ccc(O)cc2)C(=O)N[C@@H](CCCNC(=N)N)C(=O)N[C@@H](CCCNC(N)=O)C(=O)N1)C(N)=O | ligand displacement in cells | – | radioligand | pIC50 | 6.86 |
| c1ccc(C2=Nn3c(nnc3-c3ccccc3)SC2)cc1 | β-arrestin recruitment | agonist | – | pEC50 | < 4.10 |
| CN(C)c1nccc(CN(C)S(=O)(=O)Cc2cccc3cccnc23)n1 | β-arrestin recruitment | – | – | pIC50 | ~5.00 |

Some of these lines once more:
| SMILES | effect on | mode | technique | quantity | result |
| --- | --- | --- | --- | --- | --- |
| N=C(N)NCCC[C@H](NC(=O)[C@@H]1CSSC[C@H](NC(=O)[C@H](Cc2cccc3ccccc23)NC(=O)[C@H](CCCNC(=N)N)NC(=O)[C@@H](N)CCCNC(=N)N)C(=O)N[C@@H](Cc2ccc(O)cc2)C(=O)N[C@@H](CCC(N)=O)C(=O)N[C@@H](CCCCN)C(=O)N2CCC[C@@H]2C(=O)N2CCC[C@H]2C(=O)N[C@@H](Cc2ccc(O)cc2)C(=O)N[C@@H](CCCNC(=N)N)C(=O)N[C@@H](CCCNC(N)=O)C(=O)N1)C(=O)NCC(=O)N1CCC[C@@H]1C(=O)O | – | – | – | pIC50 | 10.70 |
